# Assay results of several laboratories.
# ± gives the spread as reported.
# ADCYAP1R1 del89-109: Pituitary adenylate cyclase-activating polypeptide type I receptor (ADCYAP1R1, Homo sapiens, UniProt P41586, del89-109)
# UniProt P41586, sequence (whole entry, unmodified, looked up): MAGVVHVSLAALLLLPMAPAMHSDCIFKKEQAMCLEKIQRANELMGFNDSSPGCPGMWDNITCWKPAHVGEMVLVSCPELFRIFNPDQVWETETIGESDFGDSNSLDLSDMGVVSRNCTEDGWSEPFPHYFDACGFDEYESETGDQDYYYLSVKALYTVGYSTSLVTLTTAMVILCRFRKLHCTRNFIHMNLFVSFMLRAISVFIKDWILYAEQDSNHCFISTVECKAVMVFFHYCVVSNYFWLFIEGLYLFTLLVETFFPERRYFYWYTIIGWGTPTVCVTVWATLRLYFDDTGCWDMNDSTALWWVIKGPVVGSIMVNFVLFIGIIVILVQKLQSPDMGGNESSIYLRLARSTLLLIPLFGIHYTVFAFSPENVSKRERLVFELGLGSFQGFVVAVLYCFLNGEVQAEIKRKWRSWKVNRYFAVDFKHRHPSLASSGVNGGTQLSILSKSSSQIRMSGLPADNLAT
# sdiA: Regulatory protein SdiA (sdiA, Escherichia coli, UniProt P07026)
# UniProt P21554, sequence (whole entry, unmodified, looked up): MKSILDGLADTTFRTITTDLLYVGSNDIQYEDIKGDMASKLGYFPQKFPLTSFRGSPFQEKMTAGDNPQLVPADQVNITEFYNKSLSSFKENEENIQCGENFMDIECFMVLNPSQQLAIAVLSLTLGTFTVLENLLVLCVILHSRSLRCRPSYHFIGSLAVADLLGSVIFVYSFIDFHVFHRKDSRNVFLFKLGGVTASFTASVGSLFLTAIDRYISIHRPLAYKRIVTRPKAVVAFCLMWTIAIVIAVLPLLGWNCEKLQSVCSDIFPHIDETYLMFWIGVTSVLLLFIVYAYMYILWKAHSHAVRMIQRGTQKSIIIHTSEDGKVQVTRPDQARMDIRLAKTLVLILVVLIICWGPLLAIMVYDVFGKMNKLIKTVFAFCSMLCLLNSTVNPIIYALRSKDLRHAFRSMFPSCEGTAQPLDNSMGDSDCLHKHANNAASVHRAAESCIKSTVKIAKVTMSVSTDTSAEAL
# UniProt P07026, sequence (whole entry, looked up): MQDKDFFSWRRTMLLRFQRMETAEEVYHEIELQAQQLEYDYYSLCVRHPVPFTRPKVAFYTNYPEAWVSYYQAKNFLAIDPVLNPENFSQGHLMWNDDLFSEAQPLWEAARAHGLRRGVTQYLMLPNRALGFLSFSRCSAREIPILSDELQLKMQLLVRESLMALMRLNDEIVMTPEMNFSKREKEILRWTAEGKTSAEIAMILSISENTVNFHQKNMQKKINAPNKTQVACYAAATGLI
# UniProt P50391, sequence (whole entry, looked up): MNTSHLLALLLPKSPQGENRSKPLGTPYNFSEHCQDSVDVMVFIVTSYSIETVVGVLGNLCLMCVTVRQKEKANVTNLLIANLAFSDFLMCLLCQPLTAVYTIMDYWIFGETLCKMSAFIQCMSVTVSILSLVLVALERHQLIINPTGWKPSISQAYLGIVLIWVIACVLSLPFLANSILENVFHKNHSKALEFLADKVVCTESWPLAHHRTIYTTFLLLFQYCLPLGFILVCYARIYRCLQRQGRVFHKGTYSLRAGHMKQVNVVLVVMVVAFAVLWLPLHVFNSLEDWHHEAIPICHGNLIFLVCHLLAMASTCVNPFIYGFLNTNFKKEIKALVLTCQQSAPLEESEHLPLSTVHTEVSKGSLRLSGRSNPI
SMILES,tested on,assay,system,setting,scale,quantity,value
Cc1ccc2c(C(C[N+](=O)[O-])c3cccs3)c(-c3ccccc3)[nH]c2c1 (centres unmarked),"Cannabinoid receptor 1, with GoB (CNR1, Homo sapiens, UniProt P21554)","GoB dissociation, agonist, BRET",HEK293,,,EC50,270 ± 90 nM
CSCC[C@H](NC(=O)[C@H](CCC(N)=O)NC(=O)[C@H](CCCCN)NC(=O)[C@H](CCCNC(=N)N)NC(=O)[C@H](Cc1ccc(O)cc1)NC(=O)[C@H](CCCNC(=N)N)NC(=O)[C@H](CO)NC(=O)[C@H](Cc1ccc(O)cc1)NC(=O)[C@H](CO)NC(=O)[C@H](CC(=O)O)NC(=O)[C@@H](NC(=O)[C@@H](N)Cc1ccccc1)[C@@H](C)O)C(=O)N[C@@H](C)C(=O)N[C@H](C(=O)N[C@@H](CCCCN)C(=O)N[C@@H](CCCCn1cc(C[C@H](NC(=O)CNC(=O)[C@H](CO)NC(=O)[C@H](CCCNC(=N)N)NC(=O)[C@H](CO)NC(=O)[C@H](CC(C)C)NC(=O)[C@H](CC(C)C)NC(=O)CNC(=O)[C@H](C)NC(=O)[C@H](CC(C)C)NC(=O)[C@H](CCCNC(=N)N)NC(=O)[C@H](Cc2c[nH]cn2)NC(=O)[C@@H](NC(=O)[C@@H](N)C(C)C)[C@@H](C)O)C(=O)N[C@H](C(=O)N[C@H](C(=O)N[C@@H](CCCCN)C(=O)N[C@@H](CC(N)=O)C(=O)N[C@@H](CC(N)=O)C(=O)N[C@@H](Cc2ccccc2)C(=O)N[C@H](C(=O)N2CCC[C@H]2C(=O)N[C@H](C(=O)N[C@@H](CC(N)=O)C(=O)N[C@H](C(=O)NCC(=O)N[C@@H](CO)C(=O)N[C@@H](CCCCN)C(=O)N[C@@H](C)C(=O)N[C@@H](Cc2ccccc2)C(N)=O)C(C)C)[C@@H](C)O)C(C)C)C(C)C)C(C)C)nn1)C(=O)N[C@@H](Cc1ccc(O)cc1)C(=O)N[C@@H](CC(C)C)C(=O)N[C@@H](C)C(=O)N[C@@H](C)C(=O)N[C@H](C(=O)N[C@@H](CC(C)C)C(=O)NCC(=O)N[C@@H](CCCCN)C(=O)N[C@@H](CCCNC(=N)N)C(=O)N[C@@H](Cc1ccc(O)cc1)C(=O)N[C@@H](CCCCN)C(=O)N[C@@H](CCC(N)=O)C(=O)N[C@@H](CCCNC(=N)N)C(=O)N[C@H](C(=O)N[C@@H](CCCCN)C(=O)N[C@@H](CC(N)=O)C(=O)N[C@@H](CCCCN)C(N)=O)C(C)C)C(C)C)C(C)C,ADCYAP1R1 del89-109,"cAMP accumulation, antagonist",,together with: VIP,,Kb,14.1 nM
CC(=O)N[C@@H](CCCNC(=N)N)C(=O)N[C@@H](Cc1ccc(O)cc1)C(=O)N[C@@H](CCCNC(=N)N)C(=O)N[C@@H](CC(C)C)C(=O)N[C@@H](CCCNC(=N)NC(=O)NCCCCN)C(=O)N[C@@H](Cc1ccc(O)cc1)C(N)=O,"Neuropeptide Y receptor type 4 (NPY4R, Homo sapiens, UniProt P50391)","calcium signal, antagonist",,,,Kb,847 nM
COc1ccccc1-c1n[nH]c2nc(NC3CCN(C(=O)Cc4ccc(F)cc4F)CC3)ncc12,,"bead binding, competition bead pull-down, refers to: LMJF.34.3670",Leishmania donovani axenic amastigote extract,10 µM,baseline: vehicle,relative abundance,1.28
CC[C@H](C)[C@H](NC(=O)[C@@H](NC(C)=O)C(C)(C)C)C(=O)N[C@H](C(=O)N[C@H](C(=O)N[C@H](C(=O)NCC(=O)N1CCC[C@H]1C(=O)N[C@@H](Cc1c[nH]cn1)C(=O)N[C@@H](CCC(=O)O)C(=O)N[C@@H](CCC(=O)O)C(=O)N[C@@H](Cc1ccc(O)cc1)C(=O)N[C@@H](CCCCNC(=S)Nc1ccc2c(c1)C(=O)OC21c2ccc(O)cc2Oc2cc(O)ccc21)C(N)=O)[C@@H](C)O)[C@@H](C)CC)C(C)(C)C,"Protein phosphatase 3 catalytic subunit alpha, with calcineurin B (PPP3CA, Homo sapiens, UniProt Q08209)","binding, fluorescence polarisation",,"GST-calcineurin, together with: FITC-labelled peptide",,Kd,> 5400 nM
O=C(Cc1ccc(Br)cc1)N[C@H]1CCSC1=O,sdiA,,,,,EC50,6.41 nM
CSCC[C@H](NC(=O)[C@H](CCC(N)=O)NC(=O)[C@H](CCCCN)NC(=O)[C@H](CCCNC(=N)N)NC(=O)[C@H](Cc1ccc(O)cc1)NC(=O)[C@H](CCCNC(=N)N)NC(=O)[C@H](CO)NC(=O)[C@H](Cc1ccc(O)cc1)NC(=O)[C@H](CO)NC(=O)[C@H](CC(=O)O)NC(=O)[C@@H](NC(=O)[C@@H](N)Cc1ccccc1)[C@@H](C)O)C(=O)N[C@@H](C)C(=O)N[C@H](C(=O)N[C@@H](CCCCN)C(=O)N[C@@H](CCCCN)C(=O)N[C@@H](Cc1ccc(O)cc1)C(=O)N[C@@H](CC(C)C)C(=O)N[C@@H](C)C(=O)N[C@@H](C)C(=O)N[C@H](C(=O)N[C@@H](CC(C)C)C(=O)NCC(=O)N[C@@H](CCCCN)C(=O)N[C@@H](CCCNC(=N)N)C(=O)N[C@@H](Cc1ccc(O)cc1)C(=O)N[C@@H](CCCCN)C(=O)N[C@@H](CCC(N)=O)C(=O)N[C@@H](CCCNC(=N)N)C(=O)N[C@H](C(=O)N[C@@H](CCCCN)C(=O)N[C@@H](CC(N)=O)C(=O)N[C@@H](CCCCn1cc(C[C@H](NC(=O)CNC(=O)[C@H](CO)NC(=O)[C@H](CCCNC(=N)N)NC(=O)[C@H](CO)NC(=O)[C@H](CC(C)C)NC(=O)[C@H](CC(C)C)NC(=O)CNC(=O)[C@H](C)NC(=O)[C@H](CC(C)C)NC(=O)[C@H](CCCNC(=N)N)NC(=O)[C@H](Cc2c[nH]cn2)NC(=O)[C@@H](NC(=O)[C@@H](N)C(C)C)[C@@H](C)O)C(=O)N[C@H](C(=O)N[C@H](C(=O)N[C@@H](CCCCN)C(=O)N[C@@H](CC(N)=O)C(=O)N[C@@H](CC(N)=O)C(=O)N[C@@H](Cc2ccccc2)C(=O)N[C@H](C(=O)N2CCC[C@H]2C(=O)N[C@H](C(=O)N[C@@H](CC(N)=O)C(=O)N[C@H](C(=O)NCC(=O)N[C@@H](CO)C(=O)N[C@@H](CCCCN)C(=O)N[C@@H](C)C(=O)N[C@@H](Cc2ccccc2)C(N)=O)C(C)C)[C@@H](C)O)C(C)C)C(C)C)C(C)C)nn1)C(N)=O)C(C)C)C(C)C)C(C)C,"Pituitary adenylate cyclase-activating polypeptide type I receptor (ADCYAP1R1, Homo sapiens, UniProt P41586)","cAMP accumulation, antagonist",,together with: PACAP-27,,Kb,166 nM
CS(C)(=O)=Nc1ccc(-c2ccc(-c3nc4cc(O[C@@H]5CO[C@H]6[C@@H]5OC[C@H]6O)[nH]c4cc3F)cc2)cc1,"Protein kinase C gamma type (PRKCG, Homo sapiens, UniProt P05129)","enzyme activity, inhibitor",,10 µM,,inhibition,1%
COc1ccccc1C(C[N+](=O)[O-])c1c(-c2ccccc2)[nH]c2ccccc12 (centres unmarked),"Cannabinoid receptor 1 (CNR1, Homo sapiens, UniProt P21554, L387A)","G protein activation, agonist, BRET",,,,EC50,280 nM
O=C1NC2(CC2)COc2ncc(F)cc2[C@H]2COCCN2c2ccn3ncc1c3n2,,,"Sprague-Dawley rat, male, spleen","oral, 5 mg/kg/day, 4 weeks dosing, end of recovery",,organ-to-brain weight ratio,52.8 ± 4.58%
COc1ccc(NC(=O)N2CCCCN3[C@H](CN(C)C)[C@H](c4ccc(C#Cc5ccccc5)cc4)[C@@H]3C2)cc1,Toxoplasma gondii,"tachyzoite growth, luciferase",HFF,72 h,,EC50,113 nM
CC(C)(C)C(=O)OCOP(=O)(OCOC(=O)C(C)(C)C)C1CCCN(O)C1=O (centres unmarked),SK-MEL-5,,,,,GI50,324 nM
CSCC[C@H](NC(=O)[C@H](CCC(N)=O)NC(=O)[C@H](CCCCN)NC(=O)[C@H](CCCNC(=N)N)NC(=O)[C@H](Cc1ccc(O)cc1)NC(=O)[C@H](CCCNC(=N)N)NC(=O)[C@H](CO)NC(=O)[C@H](Cc1ccc(O)cc1)NC(=O)[C@H](CO)NC(=O)[C@H](CC(=O)O)NC(=O)[C@@H](NC(=O)[C@@H](N)Cc1ccccc1)[C@@H](C)O)C(=O)N[C@@H](C)C(=O)N[C@H](C(=O)N[C@@H](CCCCN)C(=O)N[C@@H](CCCCN)C(=O)N[C@@H](Cc1ccc(O)cc1)C(=O)N[C@@H](CC(C)C)C(=O)N[C@@H](C)C(=O)N[C@@H](C)C(=O)N[C@H](C(=O)N[C@@H](CC(C)C)C(=O)NCC(=O)N[C@@H](CCCCN)C(=O)N[C@@H](CCCNC(=N)N)C(=O)N[C@@H](Cc1ccc(O)cc1)C(=O)N[C@@H](CCCCN)C(=O)N[C@@H](CCC(N)=O)C(=O)N[C@@H](CCCCn1cc(C[C@H](NC(=O)CNC(=O)[C@H](CO)NC(=O)[C@H](CCCNC(=N)N)NC(=O)[C@H](CO)NC(=O)[C@H](CC(C)C)NC(=O)[C@H](CC(C)C)NC(=O)CNC(=O)[C@H](C)NC(=O)[C@H](CC(C)C)NC(=O)[C@H](CCCNC(=N)N)NC(=O)[C@H](Cc2c[nH]cn2)NC(=O)[C@@H](NC(=O)[C@@H](N)C(C)C)[C@@H](C)O)C(=O)N[C@H](C(=O)N[C@H](C(=O)N[C@@H](CCCCN)C(=O)N[C@@H](CC(N)=O)C(=O)N[C@@H](CC(N)=O)C(=O)N[C@@H](Cc2ccccc2)C(=O)N[C@H](C(=O)N2CCC[C@H]2C(=O)N[C@H](C(=O)N[C@@H](CC(N)=O)C(=O)N[C@H](C(=O)NCC(=O)N[C@@H](CO)C(=O)N[C@@H](CCCCN)C(=O)N[C@@H](C)C(=O)N[C@@H](Cc2ccccc2)C(N)=O)C(C)C)[C@@H](C)O)C(C)C)C(C)C)C(C)C)nn1)C(=O)N[C@H](C(=O)N[C@@H](CCCCN)C(=O)N[C@@H](CC(N)=O)C(=O)N[C@@H](CCCCN)C(N)=O)C(C)C)C(C)C)C(C)C,ADCYAP1R1 del89-109,"cAMP, antagonist",,,,Kb,> 10000 nM
COc1ccc(CC(=O)N[C@H]2CCOC2=O)cc1,sdiA,,,,,EC50,5 nM

# Repeated from above:
SMILES,tested on,assay,system,setting,scale,quantity,value
CC[C@H](C)[C@H](NC(=O)[C@@H](NC(C)=O)C(C)(C)C)C(=O)N[C@H](C(=O)N[C@H](C(=O)N[C@H](C(=O)NCC(=O)N1CCC[C@H]1C(=O)N[C@@H](Cc1c[nH]cn1)C(=O)N[C@@H](CCC(=O)O)C(=O)N[C@@H](CCC(=O)O)C(=O)N[C@@H](Cc1ccc(O)cc1)C(=O)N[C@@H](CCCCNC(=S)Nc1ccc2c(c1)C(=O)OC21c2ccc(O)cc2Oc2cc(O)ccc21)C(N)=O)[C@@H](C)O)[C@@H](C)CC)C(C)(C)C,"Protein phosphatase 3 catalytic subunit alpha, with calcineurin B (PPP3CA, Homo sapiens, UniProt Q08209)","binding, fluorescence polarisation",,"GST-calcineurin, together with: FITC-labelled peptide",,Kd,> 5400 nM
